Earlier results that unrelated publications cite.
Lines come from different studies, so protocols differ.

Compound | tested on | test | system | conditions | scale | quantity | value
CNC(=O)c1ccc(Nc2ncc(C(F)(F)F)c(NCc3nccnc3N(C)S(C)(=O)=O)n2)cc1 |  |  | patients with KRAS mutant NSCLC | dose not given |  | median progression-free survival | 46 days
CC(=O)O[C@H]1C(=O)[C@@]2(C)[C@H]([C@H](OC(=O)c3ccccc3)[C@]3(O)C[C@H](OC(=O)[C@H](O)[C@@H](NC(=O)c4ccccc4)c4ccccc4)C(C)=C1C3(C)C)[C@]1(OC(C)=O)CO[C@@H]1C[C@@H]2O |  |  | taxane-naive platinum-treated ovarian cancer patients | 67 mg/m2 weekly, monotherapy |  | median time to progression | 6.1 months
Cc1ccc(Nc2nccc(N(C)c3ccc4c(C)n(C)nc4c3)n2)cc1S(N)(=O)=O |  |  | paediatric sarcoma patients | dose not given |  | median overall survival | 6.2 months
CON(C)C(=O)N1N=C(c2cc(F)ccc2F)S[C@@]1(CCCN)c1ccccc1 |  |  | multiple myeloma patients | dose not given |  | median time to response | 3.7 months
Cc1cc(C)c(CNC(=O)c2cc(Cl)c3c(c2C)O[C@@](C)([C@H]2CC[C@H](N(C)C)CC2)O3)c(=O)[nH]1 |  |  | relapsed/refractory PTCL patients | dose not given |  | median PFS | 52 weeks
COc1nc(C)cnc1NS(=O)(=O)c1cccnc1-c1ccc(-c2nnco2)cc1 |  |  | advanced prostate cancer patients | dose not given, phase II |  | median time to progression | no effect
CN(C)C(=O)c1cc2cnc(Nc3ccc(N4CCNCC4)cn3)nc2n1C1CCCC1 |  |  | HR+/HER2- advanced breast cancer, progressed on endocrine therapy | together with: fulvestrant |  | median PFS | 14.6 months
Nc1cc(C(F)(F)F)c(-c2nc(N3CCOCC3)nc(N3CCOCC3)n2)cn1 | Serine/threonine-protein kinase pim-3 (PIM3, Homo sapiens, UniProt Q86V86) | enzyme activity |  | 10 µM | reference: untreated | remaining activity | 78%
Nc1cccc2c1C(=O)N(C1CCC(=O)NC1=O)C2=O (stereo not drawn) |  |  | relapsed refractory multiple myeloma patients | dose not given, phase II, sample A patients, together with: low-dose dexamethasone |  | median overall survival | 16.5 months
